Experimental data of several laboratories.
Each line is one published result; not all experiments were run side by side. “And” joins repeats or separate records; there may be more than shown. Numbers after ± are the reported error.

SMILES	cell line	test	system	setting	how to read	measurement	result
OCc1ccc(-c2nn(Cc3cccnc3)c3ccccc23)o1	RBE	cell viability, CellTiter-Glo				IC50	270 nM and 260 nM
Cc1ccc2c(c1)C(=O)[C@]1(O)CCN(c3ccc4nc(C)ccc4c3)C1=N2.Cl	murine Trp53-/- Pten-/- cells	refers to: SRC and ERK1/2		concentration not given	reference: untreated	phosphorylation	2 to 3 fold
CNC(=O)c1c(F)cccc1Nc1nc(Nc2cc3c(cc2OC)CCN3C(=O)CN(C)C)nc2[nH]ccc12	hiPSC-derived cardiomyocytes (iCell)	impedance		concentration not given, 24 h	reference: control	cell index	86.6%
COc1cc(/C=C/C(=O)N2CCC=CC2=O)cc(OC)c1OC	MDA-MB-468	qRT-PCR, refers to: SOD1		30 µM, 6 h	reference: time zero	mRNA level	135 ± 11.2%
NCc1ccc(-c2nn(Cc3ccccn3)c3cccnc23)o1	RBE	cell viability, CellTiter-Glo				IC50	3040 nM
Cc1cnc(NC2CCOCC2)nc1-n1cnc(C(=O)NC(CN)c2cc(F)cc(Cl)c2)c1 (centres unmarked)	Rec1	flow cytometry		1 µM, 72 h		G2 phase cells	21.4%
CCCCc1nc(Cl)c(CO)n1Cc1ccc(-c2ccccc2-c2nn[nH]n2)cc1	human PBMC	RNA-seq, refers to: OPRD1 mRNA		10 µg/mL, 24 h	reference: untreated control	log2 fold change	2.01
Clc1nc(NCc2ccco2)c2[nH]cnc2n1	iPSC-derived cardiomyocytes	RNA-seq, refers to: BCL11A chr2 exon ending 60468833		unit not given	reference: DMSO minus compound	ΔPSI	-0.306
CCN(Cc1ccncc1)c1ccc(CO)c(Cl)c1	RBE	cell viability, CellTiter-Glo				IC50	980 nM
NC(=O)NOCCCCCCCCCCCCCC[P+](c1ccccc1)(c1ccccc1)c1ccccc1.O=C([O-])C(F)(F)F	HCT-116	cell growth, live-cell imaging		3 µM, control at 90% confluence		cell confluence	3.42%
CCN(Cc1ccc(C)cc1)c1ccc(CO)c(Cl)c1	RBE	cell viability, CellTiter-Glo				IC50	370 nM
c1ccc2[nH]ccc2c1	HCT-8	RNA-seq, refers to: SLC16A14		concentration not given		mRNA level, LS mean	45.7 counts per million
CCc1cnc(N2CCC(c3nc(COc4ccc(-n5cnnn5)cc4)cs3)CC2)nc1	HEK293T	RNA-seq, refers to: HSPH1 mRNA		10 µM, 6 h	reference: vehicle	log2 fold change	-0.172
CC(C)NCC(O)c1ccc(O)c(O)c1 (centres unmarked)	mouse ventricular cardiomyocytes			dose not given, 0.051 s		sarcomere length	1.8 µm
O=C(/C=C/C=C/C=C/C1CCCCC1)NC1=C[C@@](O)(/C=C/C=C/C=C/C(=O)NC2=C(O)CCC2=O)[C@@H]2O[C@@H]2C1=O	l33	cell growth, inhibitor, CellTiter-Glo luminescence		78 h	reference: day 0 cell count	GI50	16800 nM
O=P1(C2CCCCC2)CCCCC1	SW-620	annexin V/PI flow cytometry		IC50, 72 h		necrotic cells	0.85%
CC/C(=N\NC(=O)NCc1cccc(O)c1)c1ccc(O)c(C)c1O	SK-OV-3	ATP	2D monolayer culture	1 µM, 4 days	reference: untreated	relative cell number	105%
Cc1cc(Br)cc2c1NC(=O)/C2=C1\SC(=S)NC1=O	NSCLC cells	MTT		concentration not given, 48 h		viability loss	20 to 50%
C=Cc1c2[n-]c(c1C)/C=c1\[n-]/c(c(C)c1C=C)=C\c1[n-]c(c(CCC(=O)O)c1C)/C=c1\[n-]c(c(C)c1CCC(=O)O)=C2.[Sn+4]	SH-SY5Y	RNA-seq, refers to: FOSL1 mRNA		5 µM, 5 h	reference: untreated cells	fold change	2.98
NC(=O)NO	HCT-116	cell growth, live-cell imaging		30 µM, control at 90% confluence		cell confluence	91.6 ± 5.07%
CC(=O)O[C@@]12CO[C@@H]1C[C@H](O)[C@@]1(C)C(=O)[C@H](O)C3=C(C)[C@@H](OC(=O)[C@H](O)[C@@H](NC(=O)OC(C)(C)C)c4ccccc4)C[C@@](O)([C@@H](OC(=O)c4ccccc4)[C@H]21)C3(C)C	4T1	flow cytometry		concentration not given	reference: PBS	CD44-positive cells	7 fold

SMILES	cell line	test	system	setting	how to read	measurement	result
Cc1nn(-c2nc3ccc(Cl)c(Cl)c3[nH]2)c(O)c1C1OC(=O)c2ccccc21 (centres unmarked)	RAW-ISG	RT-qPCR		10 µM, unit not given, together with: poly(I:C)	reference: DMSO	IFNB1 mRNA level	0.871 and 0.809 and 0.41
CC(=O)c1nn(-c2ccc(Cl)cc2)/c(=N/N=C(\C)c2ccc(NC(=O)c3ccc(C)cc3)cc2)s1	MCF7			10 µM		toxicity	94.8%
CC(C)C[C@@H]1NC(=O)[C@H](CC(C)C)NC(=O)[C@H](Cc2c[nH]c3ccccc23)NC(=O)[C@H](CO)NC(=O)[C@H](Cc2c[nH]c3ccccc23)NC(=O)[C@@H]2CCCN2C(=O)[C@H](CC(C)C)NC(=O)[C@H](Cc2c[nH]cn2)NC(=O)[C@@H]2CCCN2C(=O)[C@H](CC(N)=O)NC(=O)[C@H](C)NC(=O)[C@H](Cc2ccc(O)cc2)NC(=O)[C@H](CS)NC(=O)[C@H](CCCCNC(=O)CN2CCN(CC(=O)O)CCN(CC(=O)O)CCN(CC(=O)O)CC2)NC1=O [lutetium-177 labelled]	4T1	flow cytometry		concentration not given, 72 h		viability decrease	53.4 ± 3.01%
COc1cnc2cccc(N3CCc4c(cc(Cn5ccnc5C)cc4-c4cn(C)nc4C(F)(F)F)C3=O)c2c1	HEC59	cell growth		120 h		EC50	> 30000 nM
C=CC1=C(C)c2cc3[n-]c(cc4nc(cc5[n-]c(cc1n2)c(C)c5C=C)C(C)=C4CCC(=O)O)c(CCC(=O)O)c3C.[Zn+2]	SH-SY5Y	RNA-seq, refers to: KLF6 mRNA		5 µM, 5 h	reference: untreated cells	fold change	1.73
Cc1c(C)c2c(c(C)c1O)CCC(C)(COc1ccc(CC3SC(=O)NC3=O)cc1)O2 (centres unmarked)	HepG2	mitochondrial ROS		1 h, distribution mode 1		point of departure	0.0741 µM
Cc1sc2c(c1C)C(c1ccc(Cl)cc1)=N[C@@H](CC(=O)NCCCCCCCCNC(=O)COc1cccc3c1C(=O)N(C1CCC(=O)NC1=O)C3=O)c1nnc(C)n1-2 (some centres unmarked)	4T1	Annexin V-FITC/PI flow cytometry		concentration not given		early apoptotic cells	3.44% and 2.64% and 2.62%
NC(N)=NCCC[C@H](NC(=O)COCC(c1ccccc1)c1ccccc1)C(=O)O	LAD2	β-hexosaminidase release		30 min, 37 °C		degranulation	inactive
NC(=O)NOCCCCCCCCCCCC[P+](c1ccccc1)(c1ccccc1)c1ccccc1.O=C([O-])C(F)(F)F	HCT-116	cell growth, live-cell imaging		7.5 µM, control at 90% confluence		cell confluence	2.27 ± 0.16%
Cn1cc(-c2ccc(-c3cncc(Cl)c3N3CCC4(CCNC4=O)CC3)cc2)cn1	COLO 205	gene expression, microarray, refers to: DPP4 mRNA		concentration not given, 6 h	reference: untreated cells	log2 fold change	1.98
CCn1cc(-c2cc(Cn3ccoc3=N)cc3c2CCN([C@@H](C)c2cc(OC)ccn2)C3=O)c(C(F)(F)F)n1	IM95	cell growth, inhibitor		120 h		EC50	721 nM
Nc1cccc2c1C(=O)N(C1CCC(=O)NC1=O)C2=O (centres unmarked)	bone marrow CD138+ myeloma cells	XTT		1.4 µM, mean of three patients		viability	55%
[Cl-].c1csc([I+]c2cccs2)c1	LS174T	RT-PCR, refers to: Nox1, p22phox, NoxA1, NoxO1		10 µM, 24 h, together with: DPI 250 nM		mRNA level	decreased
CC(C)n1nc(-c2cc3cc(O)ccc3[nH]2)c2c(N)ncnc21	hiPSC-derived cardiomyocytes (iCell)	impedance		concentration not given, 24 h	reference: control	cell index	91%
Cc1cccc(-c2[nH]c(CNc3ccccc3F)nc2-c2ccc3ncnn3c2)n1	CD8+ T cells from myeloma patient	ELISA	human	1 µM		TNF-alpha production	0.927% and 0.903% and 1.09% and 0.962% and 1.08% and 1.04%
COc1nc(NCc2cn(-c3ccc(C(=O)Nc4ccc(C(F)(F)F)cc4)cc3)nn2)nc(OC)n1	HCT-116	annexin V-FITC/PI		IC50, 24 h	reference: untreated	apoptotic cells	42 fold
CCN(CCO)CCCC(C)Nc1ccnc2cc(Cl)ccc12 (centres unmarked)	human PBMC	qRT-PCR, refers to: MX1 mRNA		1000 nM, together with: ssRNA		inhibition	6 ± 14%
CCn1cc(-c2cc(Cn3ccnc3)cc3c2CCN([C@H](c2cc(OC)ccn2)C2CC2)C3=O)c(C(F)(F)F)n1	Caov-3	cell growth, inhibitor		120 h		EC50	16700 nM
OCc1ccc(-c2nn(Cc3cccc(F)c3)c3ccccc23)o1	RBE	cell viability, CellTiter-Glo				IC50	1180 nM
CCc1c(-c2ccccc2)c(-c2ccccc2)nn1-c1ccccc1-c1cccc(OCC(=O)O)c1	mouse bone marrow macrophages	osteoclast differentiation, inhibitor, TRAP staining		0.3 µM, together with: M-CSF and RANKL		normalized response	85.3% and 73.2% and 71.6% and 81.2% and 69.2% and 55.5%
